{"data": "Published values gathered from unrelated publications", "note": "Numbered parts are unrelated; each lists some results of a single study. Positions count from the first letter of the parent shown.", "UniProt P20309, sequence (whole entry, looked up)": "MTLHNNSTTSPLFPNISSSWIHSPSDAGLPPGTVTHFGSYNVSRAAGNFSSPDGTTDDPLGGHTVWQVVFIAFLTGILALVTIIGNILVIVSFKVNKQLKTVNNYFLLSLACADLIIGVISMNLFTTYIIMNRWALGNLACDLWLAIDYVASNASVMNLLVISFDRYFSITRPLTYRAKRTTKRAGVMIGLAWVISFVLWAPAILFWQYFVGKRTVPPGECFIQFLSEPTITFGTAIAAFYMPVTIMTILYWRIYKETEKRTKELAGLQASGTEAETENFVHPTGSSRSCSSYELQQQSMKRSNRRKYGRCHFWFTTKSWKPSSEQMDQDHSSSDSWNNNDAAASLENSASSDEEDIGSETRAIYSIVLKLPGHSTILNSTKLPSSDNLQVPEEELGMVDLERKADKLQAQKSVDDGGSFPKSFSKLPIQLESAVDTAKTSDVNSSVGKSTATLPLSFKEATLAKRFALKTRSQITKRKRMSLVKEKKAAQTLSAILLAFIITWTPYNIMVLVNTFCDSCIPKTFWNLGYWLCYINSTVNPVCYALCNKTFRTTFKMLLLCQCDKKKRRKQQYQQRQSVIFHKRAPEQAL"}
{"data": "Block 1", "target": "ABI1, truncated, D143A, DHFR fusion (Arabidopsis thaliana)", "technique": "DHFR PCA, deep sequencing", "matrix": "yeast", "notes": "methotrexate growth selection, single substitutions", "with": "(+)-ABA 0 µM", "reference": "wild-type fitted maximum", "direction": "higher = stronger binding", "starting sequence": "PYL1, truncated, DHFR fusion (Arabidopsis thaliana); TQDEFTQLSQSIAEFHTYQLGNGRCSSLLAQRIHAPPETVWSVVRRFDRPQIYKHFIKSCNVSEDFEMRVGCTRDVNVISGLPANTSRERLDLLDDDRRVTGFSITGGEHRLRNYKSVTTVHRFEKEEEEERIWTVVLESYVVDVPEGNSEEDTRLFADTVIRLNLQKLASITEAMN; partner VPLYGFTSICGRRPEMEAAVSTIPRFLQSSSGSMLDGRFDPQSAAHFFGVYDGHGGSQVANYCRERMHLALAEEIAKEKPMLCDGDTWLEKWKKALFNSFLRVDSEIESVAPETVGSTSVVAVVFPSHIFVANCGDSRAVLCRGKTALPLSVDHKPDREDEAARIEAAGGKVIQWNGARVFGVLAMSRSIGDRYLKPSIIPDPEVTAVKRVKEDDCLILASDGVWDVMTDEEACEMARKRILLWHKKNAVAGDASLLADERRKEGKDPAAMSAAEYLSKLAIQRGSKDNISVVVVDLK"}
{"Substitution": "R98Q", "relative binding score": "5.37%"}
{"Substitution": "R98N", "relative binding score": "1.25%"}
{"Substitution": "A84Q", "relative binding score": "22.4%"}
{"Substitution": "V118R", "relative binding score": "36%"}
{"Substitution": "D96T", "relative binding score": "-5.31%"}
{"Substitution": "N177I", "relative binding score": "13.3%"}
{"Substitution": "G102V", "relative binding score": "1.28%"}
{"Substitution": "D92F", "relative binding score": "0.297%"}
{"data": "Block 2", "target": "CCNB2, cyclin fold, Cln2 fusion (human)", "technique": "yeast growth competition, sequencing", "matrix": "yeast", "notes": "strong parent motif", "reference": "not given", "direction": "higher = stronger binding", "starting sequence": "viral docking peptide; TSVRRALFTGGSD; partner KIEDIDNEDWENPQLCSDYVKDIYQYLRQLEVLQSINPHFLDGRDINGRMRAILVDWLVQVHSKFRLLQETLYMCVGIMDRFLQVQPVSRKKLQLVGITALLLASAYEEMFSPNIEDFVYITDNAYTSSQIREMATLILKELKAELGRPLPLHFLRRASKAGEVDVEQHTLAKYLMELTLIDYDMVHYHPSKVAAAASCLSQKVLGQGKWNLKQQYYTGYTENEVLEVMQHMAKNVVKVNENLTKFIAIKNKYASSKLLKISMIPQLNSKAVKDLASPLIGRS"}
{"Substitution": "TSVRRALFTGGLD [S12L]", "normalised enrichment score": 0.597}
{"Substitution": "TSVRRALFTQGSD [G10Q]", "normalised enrichment score": 1.01}
{"Substitution": "TSVRRALETGGSD [F8E]", "normalised enrichment score": -0.0698}
{"Substitution": "TSVRRALFCGGSD [T9C]", "normalised enrichment score": 0.708}
{"Substitution": "TSVRRALYTGGSD [F8Y]", "normalised enrichment score": 0.289}
{"Substitution": "TSVRIALFTGGSD [R5I]", "normalised enrichment score": 0.191}
{"Substitution": "TSVRRALFTKGSD [G10K]", "normalised enrichment score": 0.469}
{"Substitution": "TSVRRKLFTGGSD [A6K]", "normalised enrichment score": 0.782}
{"Substitution": "TSVRRALFTGASD [G11A]", "normalised enrichment score": 0.599}
{"Substitution": "TSVRRALFTWGSD [G10W]", "normalised enrichment score": 0.632}
{"Substitution": "TSVVRALFTGGSD [R4V]", "normalised enrichment score": 0.101}
{"Substitution": "TSVRRALFTGGCD [S12C]", "normalised enrichment score": 0.766}
{"Substitution": "TNVRRALFTGGSD [S2N]", "normalised enrichment score": 0.746}
{"Substitution": "TSMRRALFTGGSD [V3M]", "normalised enrichment score": 0.399}
{"Substitution": "TSVRRALFWGGSD [T9W]", "normalised enrichment score": 0.194}
{"Substitution": "TRVRRALFTGGSD [S2R]", "normalised enrichment score": 1.12}
{"Substitution": "TSVRRFLFTGGSD [A6F]", "normalised enrichment score": 0.703}
{"Substitution": "TSVRRALATGGSD [F8A]", "normalised enrichment score": 0.181}
{"Substitution": "TSVRRALFDGGSD [T9D]", "normalised enrichment score": 0.634}
{"Substitution": "TSVRRALMTGGSD [F8M]", "normalised enrichment score": 0.383}
{"Substitution": "TSVRRVLFTGGSD [A6V]", "normalised enrichment score": 0.354}
{"Substitution": "TSVLRALFTGGSD [R4L]", "normalised enrichment score": 0.168}
{"Substitution": "TSPRRALFTGGSD [V3P]", "normalised enrichment score": -0.0847}
{"data": "Block 3", "target": "HLA class I histocompatibility antigen, A alpha chain, allele A*80:01 (Homo sapiens, UniProt P04439)", "observed": "peptide-MHC binding", "molecule type": "peptide", "concentration": "concentration not given"}
{"Molecule": "MTYLDGHPV", "binding": "inactive"}
{"Molecule": "VYWENEVSI", "binding": "inactive"}
{"Molecule": "YLAKLFLDH", "binding": "active"}
{"Molecule": "DWMDRIEEF", "binding": "inactive"}
{"Molecule": "LARFPCNVI", "binding": "inactive"}
{"Molecule": "FPRYPLNVL", "binding": "inactive"}
{"Molecule": "KLKSVGKAY", "binding": "inactive"}
{"data": "Block 4", "target": "Interferon regulatory factor 1, DNA-binding domain (IRF1, Homo sapiens, UniProt P10914, residues 1-114)", "technique": "protein-binding microarray", "molecule type": "hairpin DNA", "matrix": "in vitro", "concentration": "not given", "notes": "whole hairpin DNA, median over replicate spots", "reference": "not given", "direction": "higher = stronger binding", "all sequences stand within": "GAGGCCCG … CGGGCCTCACAC", "Target sequence (chain)": "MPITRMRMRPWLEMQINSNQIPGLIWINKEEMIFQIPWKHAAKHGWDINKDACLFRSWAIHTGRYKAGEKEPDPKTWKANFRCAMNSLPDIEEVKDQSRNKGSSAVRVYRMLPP"}
{"Oligonucleotide": "TAAGTGAAACGCCTCCTGGCGTTTCACTTA", "median fluorescence [a.u.]": 633}
{"Oligonucleotide": "AAAGCGAAACGCCTCCTGGCGTTTCGCTTT (5mC at 7 13)", "median fluorescence [a.u.]": 990}
{"Oligonucleotide": "AAAGTCAAACGCCTCCTGGCGTTTGACTTT (5mC at 14)", "median fluorescence [a.u.]": 468}
{"Oligonucleotide": "AAAGCGAAACGCCTCCTGGCGTTTCGCTTT (5mC at 33)", "median fluorescence [a.u.]": 1160}
{"Oligonucleotide": "AAAGTCAAACGCCTCCTGGCGTTTGACTTT", "median fluorescence [a.u.]": 527}
{"Oligonucleotide": "AAAGAGAAACGCCTCCTGGCGTTTCTCTTT", "median fluorescence [a.u.]": 734}
{"Oligonucleotide": "AAAGTGAATCGCCTCCTGGCGATTCACTTT", "median fluorescence [a.u.]": 529}
{"Oligonucleotide": "AAAGCGAACGGCCTCCTGGCCGTTCGCTTT", "median fluorescence [a.u.]": 534}
{"data": "Mixed results"}
{"SMILES": "CNCc1ccccc1-c1csc([C@@H](C)Nc2nc(C)nc3cc(OC)c(OC)cc23)c1", "target": "Muscarinic acetylcholine receptor M3 (CHRM3, Homo sapiens, UniProt P20309)", "assay": "cell-free assay", "setting": "10 µM", "endpoint": "inhibition", "value": "56.5%"}
{"note": "For quick reference, copied from above (block 2):"}
{"Substitution": "TSVRRALFTGASD [G11A]", "normalised enrichment score": 0.599}
{"Substitution": "TSVRIALFTGGSD [R5I]", "normalised enrichment score": 0.191}
{"Substitution": "TSVRRALYTGGSD [F8Y]", "normalised enrichment score": 0.289}
{"Substitution": "TSVRRALFTGGLD [S12L]", "normalised enrichment score": 0.597}
